Measurements of several laboratories.
Compare with care: the assays were run in different laboratories. ± gives the spread as reported.

| SMILES | cell line | effect on | action | technique | time | notes | IC50 [µM] |
| --- | --- | --- | --- | --- | --- | --- | --- |
| CC[C@@H](C)[C@@H](NC(=O)[C@@H](Cc1c[nH]c2ccccc12)NC(=O)[C@H](N)CCCNC(=N)N)C(=O)N[C@H](CCSC)C(=O)N[C@H](Cc1ccc(O)cc1)C(=O)N[C@H](Cc1ccccc1)C(N)=O | SK-BR-3 | cell growth or viability |  | trypan blue |  |  | 10 |
| COC1=C[C@@H]2[C@@H]3Cc4ccc(OC)c(OC(=O)[C@@H]5CCCN5C(=O)OC(C)(C)C)c4[C@]2(CCN3C)CC1=O | RAW264.7 | NO release | inhibitor | Griess |  | LPS-stimulated | 51.4 |
| Cc1cc(C)c(N2CCN(c3c(C)cc(C)cc3C)C2=[Se])c(C)c1.[Cl][Au] | H157 spheroids |  |  | acid phosphatase | 72 h | 3D spheroid | 8.6 ± 0.4 |
| CC(C)C[C@H](NC(=O)[C@H](CCC(N)=O)NC(=O)[C@@H]1CSSC[C@@H]2NC(=O)[C@H](CC(N)=O)NC(=O)[C@@H](NC(=O)[C@@H](CCCNC(=N)N)NC(=O)[C@@H](CCCNC(=N)N)NC(=O)[C@@H](CCCNC(=N)N)NC(=O)[C@@H](CCCNC(=N)N)NC(=O)[C@@H](CCCNC(=N)N)NC(=O)[C@@H](CCCNC(=N)N)NC(=O)[C@@H](CCCNC(=N)N)NC(=O)[C@@H](CCCNC(=N)N)NC(=O)[C@H](N)CCCNC(=N)N)CSSC[C@H](NC(=O)[C@H](Cc3ccccc3)NC(=O)[C@H](C)NC(=O)[C@H]([C@@H](C)O)NC(=O)[C@H](CCC(=O)O)NC(=O)[C@@H]3CCCN3C(=O)[C@H](C)NC(=O)[C@H](CCCCN)NC2=O)C(=O)N[C@@H](C)C(=O)N[C@@H](Cc2ccc(O)cc2)C(=O)N[C@@H](Cc2c[nH]c3ccccc23)C(=O)N1)C(N)=O | HCT-116 p53-/- | cytotoxicity |  |  |  |  | ~6 |
| CNC(=O)c1cc(Oc2ccc(NC(=O)c3cc(-c4ccc(OC(=O)CCC(=O)OC5OC6OC7(C)CCC8C(C)CCC(C5C)C68OO7)cc4)ccn3)cc2)ccn1 (stereo not shown) | Hep3B | cell growth or viability |  | MTT | 72 h |  | 6.19 |
| [Cl][Ag].[Se]=c1n(C2CCCCC2)ccn1C1CCCCC1 | H157 spheroids |  |  | acid phosphatase | 72 h | 3D spheroid | 15.6 ± 2 |
| C[C@H](N)[C@@H](CCCCCCCCCCCCCCC(=O)CCCCCCC[C@@H](O)[C@@H](C)N)O[C@@H]1O[C@H](CO)[C@H](O)[C@H](O)[C@H]1O | HCC70 | cell growth or viability |  | resazurin | 96 h |  | 2.85 |
| Cc1nn(-c2ccccc2)c(O)c1C(c1ccccc1O)c1c(C)nn(-c2ccccc2)c1O | Ishikawa | cell growth or viability |  | MTT | 48 h |  | > 40 |
| C1CCN(C2CCNCC2)CC1.CCCC(CCC)C(=O)[O][Pt]([OH])([Cl])[Cl].CCCCN | A-375 | cytotoxicity |  |  | 72 h |  | 12.4 ± 2.93 |
| CC[C@H](C)[C@H](NC(=O)CNC(=O)[C@H](C)NC(=O)[C@@H]1CCCN1C(=O)CNC(=O)[C@H](C)NC(=O)[C@H](CCC(=O)O)NC(=O)[C@@H]1CCCN1C(=O)[C@H](CC(=O)O)NC(=O)[C@H](C)NC(=O)[C@H](CCC(=O)O)NC(=O)[C@H](C)NC(=O)[C@H](CC(=O)O)NC(=O)[C@H](C)NC(=O)[C@H](CCC(=O)O)NC(=O)[C@H](C)NC(=O)[C@H](CCC(=O)O)NC(=O)[C@@H]1CCCN1C(=O)[C@@H](N)CCC(=O)O)C(=O)NCC(=O)N[C@@H](C)C(=O)N[C@H](C(=O)N[C@@H](CC(C)C)C(=O)N[C@@H](CCCCN)C(=O)N[C@H](C(=O)N[C@@H](CC(C)C)C(=O)N[C@H](C(=O)N[C@H](C(=O)NCC(=O)N[C@@H](CC(C)C)C(=O)N1CCC[C@H]1C(=O)N[C@@H](C)C(=O)N[C@@H](CC(C)C)C(=O)N[C@H](C(=O)N[C@@H](CO)C(=O)N[C@@H](Cc1c[nH]c2ccccc12)C(=O)N[C@H](C(=O)N[C@@H](CCCCN)C(=O)N[C@@H](CCCNC(=N)N)C(=O)N[C@@H](CCCCN)C(=O)N[C@@H](CCCNC(=N)N)C(=O)N[C@@H](CCC(N)=O)C(=O)N[C@@H](CCC(N)=O)C(N)=O)[C@@H](C)CC)[C@@H](C)CC)[C@@H](C)O)[C@@H](C)O)C(C)C)C(C)C | MCF7 FAP-transfected | cell viability |  | MTT | 72 h |  | 18.9 ± 1.7 |

Repeated from above:
| SMILES | cell line | effect on | action | technique | time | notes | IC50 [µM] |
| --- | --- | --- | --- | --- | --- | --- | --- |
| CNC(=O)c1cc(Oc2ccc(NC(=O)c3cc(-c4ccc(OC(=O)CCC(=O)OC5OC6OC7(C)CCC8C(C)CCC(C5C)C68OO7)cc4)ccn3)cc2)ccn1 (stereo not shown) | Hep3B | cell growth or viability |  | MTT | 72 h |  | 6.19 |
